Results from different studies.
Lines come from different studies, so protocols differ. Values joined by “and” are separate records of one study, mostly repeats; a detail may differ. ± marks the error that the study gave. Values after ≈ are worked out from the molar mass of the structure shown.

CC1(N(CC(=O)O)CC(=O)O)CN(CC(=O)O)CCN(CC(=O)O)C1  protonation constant (log) (pH-potentiometry, refers to: logK1H; 0.15 M NaClO4; 25 °C): 10.3
O=S(=O)(NCc1ccncc1)c1ccc(C2CCCCC2)cc1  walking speed (CK-p25 mouse and littermates; intraperitoneal, 0.3 mg/kg daily, 6 weeks): no effect
O=C(Nc1cnccc1-c1ccc([18F])cc1)c1ccnc(NC(=O)C2CC2)c1  mean SUV (ex vivo gamma counting; GSK-3β transgenic mice, early-stage, caudate nucleus; intravenous, 120 min): 0.06
CC[C@H](C)[C@@H]1NC(=O)[C@H](Cc2ccc(O)cc2)NC(=O)CCCSC[C@@H](C(=O)N(CC(=O)N[C@@H](CC(C)C)C(=O)NCC(N)=O)Cc2ccc(F)cc2)NC(=O)[C@H](CC(N)=O)NC(=O)[C@H](CCC(N)=O)NC1=O  maximum undetected urinary excretion (human, urine; intravenous, 20 µg; reference: dose): ≤ 0.5%
O=C(c1cccc(N2Cc3cn(Cc4ccc(F)cc4)nc3C2)c1)N1CCNCC1  half-life (metabolic stability; human, liver microsomes): 3.77 h
Cc1cc(-c2ccc(C(=O)[C@@H]3CCCC[C@H]3C(=O)Nc3cnn4c3C(=O)NCC4)cc2)[nH]n1  recovery of radioactivity per interval (human, urine; oral, 200 mg, 72-96 h; reference: dose): 0.05%
COC(=O)[C@@]1(C(C)C)C=C(C(=O)Nc2cccc(C(=O)Nc3ccc(Nc4nccc(-c5cccnc5)n4)c(C)c3)c2)C(=O)CC1  compound remaining (rat, plasma; 1 µM, 15 min): 100% and 93.5%
CCCC[C@H]1C(=O)N(C)[C@@H](CCCC)C(=O)N[C@@H](CCCCNC(=S)Nc2ccc(CN3CCN(CC(=O)O)CCN(CC(=O)O)CC3)cc2)C(=O)N[C@H](C(=O)NCC(N)=O)CSCC(=O)N[C@@H](Cc2ccc(O)cc2)C(=O)N(C)[C@@H](C)C(=O)N[C@@H](CC(N)=O)C(=O)N2CCC[C@H]2C(=O)N[C@@H](Cc2cnc[nH]2)C(=O)N[C@@H](CCC(=O)O)C(=O)N2C[C@H](O)C[C@H]2C(=O)N[C@@H](Cc2c[nH]c3ccccc23)C(=O)N[C@@H](CO)C(=O)N[C@@H](Cc2cn(CC(=O)O)c3ccccc23)C(=O)N1C [fluorine-18 labelled]  SUV (PET, refers to: PD-L1; huCD34 mouse A-375 xenograft, tumour core within 3 mm; combination therapy): 4.34 ± 0.65 SUV
C=CC(=O)Nc1ccc(OC)c(-c2c[nH]c3ncc(-c4cncc(C(=O)N(C)C)c4)cc23)c1  hydrolytic half-life (HPLC; 50 µM, 37 °C, no lysine, followed to 24 h): > 24 h
CC(C)C[C@H](NC(=O)[C@@H](CCCCNC(=O)[C@@H](Cc1ccccc1)NC(=O)CCCCCNC(=O)CN1CCN(CC(=O)O)CCN(CC(=O)O)CCN(CC(=O)O)CC1)NC(=O)[C@H](Cc1ccc(O)cc1)NC(=O)[C@H](CO)NC(=O)[C@H](Cc1c[nH]c2ccccc12)NC(=O)[C@H](Cc1c[nH]cn1)NC(=O)[C@@H]1CCC(=O)N1)C(=O)N[C@@H](CCCNC(=N)N)C(=O)N1CCC[C@H]1C(=O)NCC(N)=O [indium-111 labelled]  tissue uptake (female athymic nude mice, pancreas; intravenous, 0.037 MBq, 1 h): 0.09 ± 0.03 %ID/g
COc1ccc(C([O-])=CC(=O)c2ccc(C(C)(C)C)cc2)cc1.[Ru+2].c1ccc(-c2cccc(-c3ccccn3)n2)nc1.c1cnccn1  photosubstitution quantum yield (water; with: 470 nm light): 0.0025%
C=C(NC(=O)c1csc(-c2nc3c(cc2O)-c2nc(cs2)C(=O)NC(C(C)O)C(=O)NC(=C(C)OC)c2nc(cs2)C(=O)NC2c4nc(cs4)C(=O)NC(COC(=O)c4c5c6c(cccc6n4O)COC(=O)C(OC4CC(C)(O)C(N(C)C)C(C)O4)C2OC5)c2nc-3cs2)n1)C(N)=O (stereo not drawn)  Cmax (male cynomolgus monkey, plasma; intravenous, 1 mg/kg, single dose, infusion): 15600 ng/mL
C=CC(=O)Nc1cc(Nc2nccc(-c3cn(C)c4ccccc34)n2)c(OC)cc1N(C)CCNC  recovery (storage stability; human plasma; 24 h, -80 °C, low QC level): 95.9%
Cc1nn(-c2nc3c(F)cc(F)cc3s2)c(O)c1C(c1ccc(C(F)(F)F)cc1)c1c(C)nn(-c2nc3c(F)cc(F)cc3s2)c1O  plasma concentration (male ICR mouse, plasma; intraperitoneal, 10 mg/kg, 0.05 h): 19.1 ng/mL and 34.6 ng/mL and 40.9 ng/mL
CC(=O)N([O-])CCCCCNC(=O)CCC(=O)N([O-])CCCCCNC(=O)CCC(=O)N([O-])CCCCCN.[89Zr+4]  tracer uptake (mouse, liver; 1 h): 1.14 %ID/g
O=C(Nc1cnccc1-c1ccc([18F])nc1)c1ccnc(NC(=O)C2CC2)c1  SUV (PET imaging; FVB/NJ mice, both sexes, brain; intravenous, 15 min post-injection, P-gp inhibited, with: tariquidar 15 mg/kg iv, 2 h before): 0.186
COC1CN([C@H]2CC[C@H]([C@@]3(C)Oc4c(Cl)cc(C(=O)NCc5c(SC)cc(C)[nH]c5=O)c(C)c4O3)CC2)C1  log2 fold change (RNA-seq, refers to: MANSC1 mouse homolog; mouse, HT-1376 xenograft, whole blood; dose not given; reference: vehicle): 0.0194
CCC(C(=O)Nc1ccc(C(N)=O)c(F)c1)n1cc(OC)c(-c2cc(Cl)ccc2-n2cc(C(F)(F)F)nn2)cc1=O (stereo not drawn)  treatment-emergent adverse events (healthy male humans; 25 mg, ASD vs IR, fed): 0%
C/C(N)=N/C(=N\S(=O)(=O)c1ccc(C(F)(F)F)cc1)N1C[C@H](c2ccccc2)C(c2ccc(Cl)cc2)=N1  oral bioavailability (Beagle dog, plasma; oral, 6 mg/kg): 45.1%
C=CC(=O)Nc1cccc(Cn2ncc3cnc(Nc4cnn(CCOC)c4)nc32)c1  percent of control (MYLK4 human; binding, KINOMEscan; 100 nM; lower = stronger binding): 85%
C[N+](C)(CCOCCOCCOCCNC(=S)Nc1ccc(C[C@H]2CN(CC(=O)[O-])CCN(CC(=O)[O-])CCN2CC(=O)[O-])cc1)C[c-]1cccc1.[64Cu+2].[Fe+2].c1cc[cH-]c1  absorbed dose (OLINDA, extrapolated from mouse biodistribution, refers to: right colon; adult male human phantom): 1.12 µSv/MBq
CN1CCC[C@]1(C)/C=C/S(=O)(=O)NC(=O)Nc1c2c(cc3c1CC(O)C3)CCC2 (stereo partly drawn)  AUC(0-24) (human, plasma; oral, 50 mg twice daily of parent drug, day 1, metabolite of dosed drug): 72.6 µg·h/mL
Nc1ncc(-c2cc(-c3cnn(CC(F)(F)F)c3)ncc2F)nc1C(=O)NC1CNCC(F)C1 (stereo not drawn)  remaining binding (CDKL5; KINOMEscan; 1 µM; reference: DMSO control): 100%
O=C(O)CCCOc1ccc([18F])cc1-c1cc(-c2ccccc2C(F)(F)F)n(-c2ccccc2)n1  absorbed dose (OLINDA/EXM from mouse data; human adults, thymus): 10.2 µGy/MBq
CC[C@H](C)[C@H](NC(=O)[C@H](CCC(N)=O)NC(=O)[C@@H](NC(=O)[C@@H]1CCCN1[C@@H]1CN(C(=O)[C@H](CCCCN)NC(=O)[C@H](CC(N)=O)NC(=O)[C@@H](NC(=O)[C@@H](NC(=O)[C@H](CCC(N)=O)NC(=O)[C@@H](N)C(C)C)[C@@H](C)CC)[C@@H](C)CC)CC[C@H]1NS(=O)(=O)c1ccc(C)cc1)C(C)C)C(=O)N[C@H](C(=O)N[C@@H](Cc1ccc(O)cc1)C(=O)N[C@@H](CCCCN)C(N)=O)C(C)C  beta-sheet content (circular dichroism; methanol; 125 µM, 20 °C): 63%
CN1C(=O)[C@@H](Cc2ccc(O)c(I)c2)NC(=O)CNC(=O)[C@H](Cc2ccc3ccccc3c2)NC(=O)[C@H](CCCNC(=N)N)NC(=O)[C@H]1CCCNC(=O)c1ccc(CNC(=O)CN2CCN(CC(=O)O)CCN(CC(=O)O)CCN(CC(=O)O)CC2)cc1 [lutetium-177 labelled]  absorbed dose coefficient (extrapolation method 1, OLINDA/EXM, refers to: 177Lu radioactivity; human, extrapolated from mice, heart wall): 0.0085 mGy/MBq
CCC1=[N+]2N=C(c3ccccc3)C(=O)O[B-]2(c2ccccc2)Oc2cc(N(CC)CC)ccc21 (stereo not drawn)  hydrolysis activation energy (UV/vis decay; aqueous buffer): 22.7 kcal/mol
CN1CCC[C@]1(C)/C=C/S(=O)(=O)NC(=O)Nc1c2c(cc3c1C(O)CC3)CCC2 (stereo partly drawn)  AUC(0-24) (human, plasma; oral, 100 mg twice daily of parent drug, day 1, metabolite of dosed drug): 311 µg·h/mL
Cc1nc(N)nc2c1C(=O)N[C@@H](c1ccc(F)cc1-c1cccc(O[11CH3])n1)C2  tracer uptake (radioligand, ex vivo biodistribution; mouse, MDA-MB-231 xenograft, carcass; 60 min p.i.): 47.2 ± 0.6 %ID
Cc1ncsc1-c1ccc(C(C)NC(=O)C2CC(O)CN2C(=O)C(NC(=O)CCCCCCCCCCN2CCCC(Nc3ncc(Cl)c(Nc4ccccc4S(=O)(=O)C(C)C)n3)C2)C(C)(C)C)cc1 (stereo not drawn)  log2 fold change (22Rv1; RNA-seq, refers to: UACA mRNA; concentration not given; reference: DMSO): -1.03
CN1CCC[C@]1(C)/C=C/S(=O)(=O)NC(=O)Nc1c2c(cc3c1CCC3)CCC2  subjects with adverse event (refers to: gastrointestinal disorders; human; oral, 50 mg twice daily, 14 days, multiple ascending dose): 33.3%
COc1ccc(Nc2nc(Nc3ccc(OCCOCCOCC[18F])cc3)ncc2Br)cc1  uptake ratio (ICR mice, S180 tumour; intravenous, 370 kBq, 5 min; reference: tumour over bone): 0.98
O=S1(=O)CC2CCCCC2CS1 (stereo not drawn)  solubility (phase solubility, NMR; water; 25 °C, with: hydroxypropyl-β-cyclodextrin 311 mM): 35.1 mM (≈ 7240 µg/mL)
